Results from different studies.
Compare with care: the assays were run in different laboratories. Numbers after ± are the reported error.
lasR: Transcriptional activator protein LasR (lasR, Pseudomonas aeruginosa, UniProt P25084)
ATP5F1B/ATP5F1A/ATP synthase F(1) complex subunit gamma, mitochondrial: ATP5F1B/ATP5F1A/ATP synthase F(1) complex subunit gamma, mitochondrial (Homo sapiens, UniProt P06576+P25705+P36542)
UniProt P25705, sequence (whole entry, looked up): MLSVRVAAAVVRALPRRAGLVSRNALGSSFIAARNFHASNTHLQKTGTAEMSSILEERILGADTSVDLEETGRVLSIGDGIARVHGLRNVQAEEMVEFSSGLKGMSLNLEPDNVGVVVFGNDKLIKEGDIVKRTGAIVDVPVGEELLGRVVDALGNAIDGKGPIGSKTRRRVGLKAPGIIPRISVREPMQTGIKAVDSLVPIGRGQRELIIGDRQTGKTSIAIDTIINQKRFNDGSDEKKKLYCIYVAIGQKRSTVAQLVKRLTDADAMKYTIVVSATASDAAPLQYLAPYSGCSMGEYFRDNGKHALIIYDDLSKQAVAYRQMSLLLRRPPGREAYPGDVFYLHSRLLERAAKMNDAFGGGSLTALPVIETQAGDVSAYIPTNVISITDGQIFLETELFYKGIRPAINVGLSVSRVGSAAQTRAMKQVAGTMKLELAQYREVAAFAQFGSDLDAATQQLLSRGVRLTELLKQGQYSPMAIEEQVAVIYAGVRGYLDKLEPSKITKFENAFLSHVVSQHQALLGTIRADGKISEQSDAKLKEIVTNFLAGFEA
UniProt P06576, sequence (whole entry, looked up): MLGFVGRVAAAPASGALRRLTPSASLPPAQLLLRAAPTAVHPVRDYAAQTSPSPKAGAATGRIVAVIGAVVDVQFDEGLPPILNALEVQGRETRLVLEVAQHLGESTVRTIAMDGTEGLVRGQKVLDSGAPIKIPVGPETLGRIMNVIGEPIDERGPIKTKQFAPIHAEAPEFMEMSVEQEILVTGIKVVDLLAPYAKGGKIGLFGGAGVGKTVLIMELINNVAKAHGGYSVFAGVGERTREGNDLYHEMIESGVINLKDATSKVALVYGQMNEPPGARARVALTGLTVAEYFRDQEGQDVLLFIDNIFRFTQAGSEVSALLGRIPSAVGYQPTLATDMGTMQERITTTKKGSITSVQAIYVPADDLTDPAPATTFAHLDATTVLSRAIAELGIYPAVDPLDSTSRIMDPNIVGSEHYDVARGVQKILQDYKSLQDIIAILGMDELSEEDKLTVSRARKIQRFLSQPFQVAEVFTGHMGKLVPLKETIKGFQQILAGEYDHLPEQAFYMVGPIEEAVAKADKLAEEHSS
UniProt P36542, sequence (whole entry, looked up): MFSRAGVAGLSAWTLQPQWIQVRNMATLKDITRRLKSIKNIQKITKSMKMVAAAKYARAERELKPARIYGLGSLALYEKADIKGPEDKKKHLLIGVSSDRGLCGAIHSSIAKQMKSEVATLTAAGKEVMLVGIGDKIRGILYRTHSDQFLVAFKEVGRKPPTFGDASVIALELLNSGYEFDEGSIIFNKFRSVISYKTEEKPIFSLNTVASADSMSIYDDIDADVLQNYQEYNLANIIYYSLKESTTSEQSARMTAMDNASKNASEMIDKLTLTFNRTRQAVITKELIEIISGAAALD
Melanocortin receptor 3: Melanocortin receptor 3 (Mus musculus, UniProt P33033)
UniProt P33033, sequence (whole entry, looked up): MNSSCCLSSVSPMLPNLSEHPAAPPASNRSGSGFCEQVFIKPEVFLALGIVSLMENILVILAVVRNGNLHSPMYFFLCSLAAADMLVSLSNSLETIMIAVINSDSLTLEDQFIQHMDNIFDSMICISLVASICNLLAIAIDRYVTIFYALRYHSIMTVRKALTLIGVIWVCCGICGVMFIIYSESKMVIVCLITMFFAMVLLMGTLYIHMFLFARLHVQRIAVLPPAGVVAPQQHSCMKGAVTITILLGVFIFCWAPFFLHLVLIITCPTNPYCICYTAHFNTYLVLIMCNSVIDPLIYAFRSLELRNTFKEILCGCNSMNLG
Gonadotropin-releasing hormone receptor: Gonadotropin-releasing hormone receptor (Rattus norvegicus, UniProt P30969)
UniProt P33535, sequence (whole entry, looked up): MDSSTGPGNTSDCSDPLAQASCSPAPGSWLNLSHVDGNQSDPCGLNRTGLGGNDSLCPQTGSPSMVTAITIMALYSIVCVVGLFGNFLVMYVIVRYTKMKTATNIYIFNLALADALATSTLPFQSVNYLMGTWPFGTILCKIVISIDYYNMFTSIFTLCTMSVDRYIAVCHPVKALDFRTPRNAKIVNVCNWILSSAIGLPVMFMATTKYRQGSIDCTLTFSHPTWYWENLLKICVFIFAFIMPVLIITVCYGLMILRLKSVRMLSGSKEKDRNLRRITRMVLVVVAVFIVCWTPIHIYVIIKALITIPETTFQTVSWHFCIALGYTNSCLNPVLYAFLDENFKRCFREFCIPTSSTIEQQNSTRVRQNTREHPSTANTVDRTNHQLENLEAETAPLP
UniProt P30969, sequence (whole entry, looked up): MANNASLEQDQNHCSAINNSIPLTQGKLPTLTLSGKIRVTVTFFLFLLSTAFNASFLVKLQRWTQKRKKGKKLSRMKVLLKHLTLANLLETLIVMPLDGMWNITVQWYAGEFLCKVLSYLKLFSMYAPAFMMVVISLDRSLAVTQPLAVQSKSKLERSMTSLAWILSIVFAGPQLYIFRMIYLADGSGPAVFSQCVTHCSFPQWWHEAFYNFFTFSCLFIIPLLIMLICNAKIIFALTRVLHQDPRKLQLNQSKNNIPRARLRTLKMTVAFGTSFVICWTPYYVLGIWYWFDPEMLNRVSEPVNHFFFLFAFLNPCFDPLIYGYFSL
UniProt P50391, sequence (whole entry, looked up): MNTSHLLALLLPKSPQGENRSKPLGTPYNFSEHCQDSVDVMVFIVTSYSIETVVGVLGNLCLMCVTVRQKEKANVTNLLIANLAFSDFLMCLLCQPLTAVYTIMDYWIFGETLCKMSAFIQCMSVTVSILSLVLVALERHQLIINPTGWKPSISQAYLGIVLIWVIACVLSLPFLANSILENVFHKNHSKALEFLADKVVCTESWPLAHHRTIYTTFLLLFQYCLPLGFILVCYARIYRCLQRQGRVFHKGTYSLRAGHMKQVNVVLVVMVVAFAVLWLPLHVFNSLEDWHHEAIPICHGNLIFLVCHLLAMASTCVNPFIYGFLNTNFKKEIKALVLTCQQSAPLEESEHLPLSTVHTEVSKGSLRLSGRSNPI
UniProt P12657, sequence (whole entry, looked up): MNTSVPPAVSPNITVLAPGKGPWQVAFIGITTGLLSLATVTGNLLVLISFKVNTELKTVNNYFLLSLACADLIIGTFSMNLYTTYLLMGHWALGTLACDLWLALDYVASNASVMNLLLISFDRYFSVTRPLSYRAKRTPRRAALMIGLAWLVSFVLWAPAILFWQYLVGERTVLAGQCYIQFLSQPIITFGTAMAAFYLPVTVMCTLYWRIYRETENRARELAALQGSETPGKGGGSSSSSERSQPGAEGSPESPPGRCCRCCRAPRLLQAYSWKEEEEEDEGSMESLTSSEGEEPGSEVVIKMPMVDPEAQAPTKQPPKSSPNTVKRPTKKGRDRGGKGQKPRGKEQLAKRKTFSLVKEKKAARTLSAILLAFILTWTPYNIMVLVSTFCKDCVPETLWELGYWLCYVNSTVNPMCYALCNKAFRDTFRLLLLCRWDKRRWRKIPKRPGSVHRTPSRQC
UniProt P41595, sequence (whole entry, looked up): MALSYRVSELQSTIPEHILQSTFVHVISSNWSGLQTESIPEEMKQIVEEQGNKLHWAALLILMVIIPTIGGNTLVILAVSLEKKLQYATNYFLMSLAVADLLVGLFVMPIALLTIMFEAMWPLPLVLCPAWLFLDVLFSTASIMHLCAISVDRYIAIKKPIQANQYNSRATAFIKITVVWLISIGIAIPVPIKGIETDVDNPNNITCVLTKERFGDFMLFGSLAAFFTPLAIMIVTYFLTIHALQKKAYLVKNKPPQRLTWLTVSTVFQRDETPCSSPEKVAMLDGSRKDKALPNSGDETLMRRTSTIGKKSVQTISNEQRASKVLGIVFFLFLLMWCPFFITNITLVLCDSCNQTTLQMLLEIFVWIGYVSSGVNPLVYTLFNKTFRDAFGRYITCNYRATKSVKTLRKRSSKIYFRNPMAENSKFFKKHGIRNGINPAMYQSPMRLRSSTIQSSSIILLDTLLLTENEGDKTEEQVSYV
UniProt P30989, sequence (whole entry, looked up): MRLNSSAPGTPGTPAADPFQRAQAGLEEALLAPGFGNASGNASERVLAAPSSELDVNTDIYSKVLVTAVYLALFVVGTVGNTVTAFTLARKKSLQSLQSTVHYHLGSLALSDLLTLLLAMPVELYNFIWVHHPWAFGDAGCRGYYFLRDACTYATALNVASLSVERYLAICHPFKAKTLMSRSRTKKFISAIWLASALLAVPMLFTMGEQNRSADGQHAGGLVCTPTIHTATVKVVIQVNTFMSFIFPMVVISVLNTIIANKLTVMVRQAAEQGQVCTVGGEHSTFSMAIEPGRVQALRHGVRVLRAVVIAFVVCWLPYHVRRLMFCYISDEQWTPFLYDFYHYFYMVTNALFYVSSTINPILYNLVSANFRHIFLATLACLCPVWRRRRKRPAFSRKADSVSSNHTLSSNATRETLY
UniProt P30874, sequence (whole entry, looked up): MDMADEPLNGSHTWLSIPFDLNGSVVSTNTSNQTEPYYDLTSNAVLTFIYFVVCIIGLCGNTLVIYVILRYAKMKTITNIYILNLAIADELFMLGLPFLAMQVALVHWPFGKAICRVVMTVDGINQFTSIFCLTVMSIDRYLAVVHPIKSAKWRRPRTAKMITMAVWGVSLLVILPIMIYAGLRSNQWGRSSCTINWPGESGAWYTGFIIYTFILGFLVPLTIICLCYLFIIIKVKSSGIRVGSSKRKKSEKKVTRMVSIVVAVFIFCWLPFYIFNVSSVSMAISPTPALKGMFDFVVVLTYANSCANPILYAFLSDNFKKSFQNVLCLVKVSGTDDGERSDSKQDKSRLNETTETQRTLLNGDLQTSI
UniProt P41149, sequence (whole entry, looked up): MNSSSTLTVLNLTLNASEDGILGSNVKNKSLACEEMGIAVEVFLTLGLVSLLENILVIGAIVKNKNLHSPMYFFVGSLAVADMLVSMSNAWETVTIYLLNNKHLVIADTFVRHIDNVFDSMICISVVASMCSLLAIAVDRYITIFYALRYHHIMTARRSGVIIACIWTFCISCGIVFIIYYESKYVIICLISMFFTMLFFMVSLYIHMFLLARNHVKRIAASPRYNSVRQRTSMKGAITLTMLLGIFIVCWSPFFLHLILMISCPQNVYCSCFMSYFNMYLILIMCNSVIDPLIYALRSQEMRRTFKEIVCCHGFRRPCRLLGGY

SMILES | target | assay | test system | setting | EC50
O=C(CCCOc1cccc(Br)c1)N[C@H]1CCSC1=O | lasR | reporter gene, agonist | PAO-JP2 pump active | – | 4200 nM
CC[C@H](C)[C@H](NC(=O)[C@H](CO)NC(=O)[C@H](Cc1ccc(O)cc1)NC(=O)[C@H](CC(=O)O)NC(=O)[C@H](CO)NC(=O)[C@@H](NC(=O)[C@H](Cc1ccccc1)NC(=O)[C@@H](NC(=O)CNC(=O)[C@@H]1CCCN1C(=O)[C@H](C)NC(=O)[C@@H](N)Cc1ccc(O)cc1)[C@@H](C)O)[C@@H](C)CC)C(=O)N[C@@H](C)C(=O)N[C@@H](CCSC)C(=O)N[C@@H](CC(=O)O)C(=O)N[C@@H](CCCCN)C(=O)N[C@H](C(=O)N[C@@H](CCCNC(=N)N)C(=O)N[C@@H](CCC(N)=O)C(=O)N[C@@H](CCC(N)=O)C(=O)N[C@@H](CC(=O)O)C(=O)N[C@@H](Cc1ccccc1)C(=O)N[C@H](C(=O)N[C@@H](CC(N)=O)C(=O)N[C@@H](Cc1c[nH]c2ccccc12)C(=O)N[C@@H](CC(C)C)C(=O)N[C@@H](CC(C)C)C(=O)N[C@@H](C)C(=O)N[C@@H](CCC(N)=O)C(=O)N[C@@H](CCCNC(=N)N)C(=O)NCC(=O)N[C@@H](CCCCN)C(=O)N[C@@H](CCCCN)C(=O)N[C@@H](CO)C(=O)N[C@@H](CC(=O)O)C(=O)N[C@@H](Cc1c[nH]c2ccccc12)C(=O)N[C@@H](CCCCN)C(=O)N[C@@H](Cc1c[nH]cn1)C(=O)N[C@@H](CC(N)=O)C(=O)N[C@H](C(=O)N[C@H](C(=O)N[C@@H](CCC(N)=O)C(=O)O)[C@@H](C)O)[C@@H](C)CC)C(C)C)[C@@H](C)CC | Gastric inhibitory polypeptide receptor (Rattus norvegicus, UniProt P43219) | cAMP, agonist | – | – | 15 nM
CC(=O)N[C@@H](CCCNC(=N)N)C(=O)N[C@@H](CCCNC(=N)N)C(=O)N[C@H](C(=O)N1Cc2ccccc2C[C@H]1C(N)=O)[C@H](c1ccccc1)c1c[nH]c2ccccc12 | Melanocortin receptor 5 (Mus musculus, UniProt P41149) | cAMP, agonist, AlphaScreen | – | – | > 100000 nM
CS(=O)(=O)c1cccc(OCCCC(=O)NC2CC3CC3C2O)c1 (stereo not shown) | lasR (Pseudomonas aeruginosa, UniProt P25084, R61A) | reporter gene, agonist | Escherichia coli lasB-lux reporter | – | > 100000 nM
Cc1cc(C2=CCN(CC3OCCO3)CC2)cc([N+](=O)[O-])c1N | HTR2B (Homo sapiens, UniProt P41595) | calcium signal, agonist | – | – | 9550 nM
CC[C@H](C)[C@H](NC(=O)[C@H](Cc1ccc(O)cc1)NC(=O)[C@@H]1CCCN1C(=O)[C@H](CCCNC(=N)N)NC(=O)[C@H](CCCNC(=N)N)NC(=O)[C@@H](NC(=O)[C@H](CCCCN)NC(=O)[C@H](CC(N)=O)NC(=O)[C@H](CCC(=O)O)NC(=O)[C@H](Cc1ccc(O)cc1)NC(=O)[C@H](CC(C)C)NC(=O)[C@@H]1CCC(=O)N1)[C@@H](C)O[C@H]1O[C@H](CO)[C@H](O)[C@H](O[C@@H]2O[C@H](CO)[C@H](O)[C@H](O)[C@H]2O)[C@H]1NC(C)=O)C(=O)N[C@@H](CC(C)C)C(=O)O | NTSR1 (Homo sapiens, UniProt P30989) | calcium signal, agonist, fluorescence | – | – | 0.9 nM
CC(=O)N1CCCC[C@H]1C(=O)NC(C)(C)C(=O)N1CCCC[C@H]1C(=O)NC(C)(C)C(=O)NC(C)(C)C(=O)N[C@@H](CC(C)C)C(=O)NC[C@@H](C)C(=O)NCC(=O)NC(C)(C)C(=O)NC(C)(C)C(=O)N1CCCC[C@H]1C(=O)NC(C)(C)C(=O)NCC(=O)N[C@@H](CC(C)C)C(=O)NC(C)(C)C(=O)N[C@@H](CC(C)C)C[N+]1=C2CCCN2CCC1 | ATP5F1B/ATP5F1A/ATP synthase F(1) complex subunit gamma, mitochondrial | ATP production, inhibitor | permeabilized MCF7 | – | 1.1 ± 0.1 nM
C[C@@H]1NC(=O)[C@H](CC(N)=O)N2C[C@H](Cc3c[nH]c4ccccc34)NC(=O)[C@@H](CSCC2=O)NC(=O)[C@H](CCCNC(=N)N)NC(=O)[C@@H](Cc2ccccc2)NC(=O)[C@H](Cc2c[nH]cn2)NC(=O)[C@@H](NC(=O)[C@@H](N)Cc2ccc(O)cc2)CSSC[C@@H](C(=O)N[C@@H](Cc2ccc(O)cc2)C(N)=O)NC(=O)[C@H](Cc2ccccc2)NC1=O | Melanocortin receptor 3 | reporter gene, agonist | – | – | 5300 nM
CC(=O)N1CCCC[C@H]1C(=O)NC(C)(C)C(=O)N1CCCC[C@H]1C(=O)NC(C)(C)C(=O)NC(C)(C)C(=O)N[C@@H](CC(C)C)C(=O)NCCC(=O)NCC(=O)NC(C)(C)C(=O)NC(C)(C)C(=O)N1CCCC[C@H]1C(=O)NC(C)(C)C(=O)NCC(=O)N[C@@H](CC(C)C)C(=O)NC(C)(C)C(=O)N[C@@H](CC(C)C)C[N+]1=C2CCCN2CCC1 | ATP5F1B/ATP5F1A/ATP synthase F(1) complex subunit gamma, mitochondrial | ATP production, inhibitor | permeabilized MCF7 | – | 1.2 ± 0.3 nM
CCCCc1cc(Cc2ccccc2)cc2c1NCCC2NC(=O)C(N)Cc1c(C)cc(O)cc1C (stereo not shown) | Oprm1 (Rattus norvegicus, UniProt P33535) | GTPγS binding, agonist, radiometric | – | cell membranes | 17 nM
CC(C)C[C@H](N)C(=O)N[C@@H](Cc1ccccc1)C(=O)N[C@H]1CSSC[C@@H](C(=O)N[C@@H](Cc2c[nH]c3ccccc23)C(=O)O)NC(=O)[C@H](CO)NC(=O)[C@H](CCCCN)NC(=O)[C@@H](Cc2c[nH]c3ccccc23)NC(=O)[C@H](Cc2ccccc2)NC1=O | SSTR2 (Homo sapiens, UniProt P30874) | β-arrestin recruitment, agonist | – | – | 2.6 nM
O=C(CCc1ccc(C(F)(F)F)cc1)N[C@H]1CCOC1=O | lasR | reporter gene, agonist | Escherichia coli, JLD271 with LasR plasmid | – | 650 nM
COc1cc(C(Oc2ccc(C[C@H](N)C(=O)N[C@H](C)C(=O)NCC(=O)N(C)[C@@H](Cc3ccccc3)C(=O)NCCO)cc2)C(=O)O)c([N+](=O)[O-])cc1OC (stereo partly shown) | Oprm1 (Mus musculus, UniProt P42866) | cAMP, agonist, luciferase | – | – | 1700 nM
C[C@@H]1NC(=O)[C@H](CC(N)=O)NC(=O)[C@H](Cc2c[nH]c3ccccc23)NC(=O)[C@H](CCCNC(=N)N)NC(=O)[C@@H](Cc2ccccc2)NC(=O)[C@H](Cc2c[nH]cn2)NC(=O)[C@@H](NC(=O)[C@@H](N)Cc2ccc(O)cc2)CCCn2nncc2-c2cccc(c2)-c2cnnn2CCC[C@@H](C(=O)N[C@@H](Cc2ccc(O)cc2)C(N)=O)NC(=O)[C@H](Cc2ccccc2)NC1=O | Melanocortin receptor 3 | agonist | – | – | 2740 ± 706 nM
CC(C)C[C@H](NC(=O)[C@@H](CCCCN)NC(=O)[C@H](Cc1c[nH]cn1)NC(=O)[C@H](CO)NC(=O)[C@H](Cc1c[nH]c2ccccc12)NC(=O)[C@H](Cc1c[nH]cn1)NC(=O)[C@@H]1CCC(=O)N1)C(=O)N[C@@H](CCCNC(=N)N)C(=O)N1CCC[C@H]1C(=O)NCC(N)=O | Gonadotropin-releasing hormone receptor | inositol phosphate accumulation, agonist | WPE-1-NB26-3 expressing Gonadotropin-releasing hormone receptor | 60 min, 37 °C, added: 10 mM LiCl | 6.2 ± 0.2 nM
CC(=O)N[C@@H](Cc1ccc(O)cc1)C(=O)N[C@@H](CCCNC(=N)NC(=O)NCCCCN)C(=O)N[C@@H](CC(C)C)C(=O)N[C@@H](CCCNC(=N)N)C(=O)N[C@@H](Cc1ccc(O)cc1)C(N)=O | NPY4R (Homo sapiens, UniProt P50391) | β-arrestin 2 recruitment, agonist | HEK293T | – | 568 ± 120 nM
CCCCCCCCCC(=O)CC(=O)Nc1ccccc1O | lasR | reporter gene, agonist | Escherichia coli, JLD271 with LasR plasmid | – | 96 nM
CC(=O)N[C@@H](CCCNC(=N)N)C(=O)N[C@@H](CCCNC(=N)N)C(=O)N[C@H](Cc1ccc(I)cc1)C(=O)N[C@@H](C(N)=O)[C@@H](c1ccccc1)c1c[nH]c2ccccc12 | Melanocortin receptor 3 | cAMP, agonist, AlphaScreen | – | – | 900 nM
Cn1ccc(-c2ccc(Cn3cc(C(=O)N[C@H]4CCCC[C@@H]4O)c4c(F)cc(F)cc43)cn2)n1 | Chrm1 (Mus musculus, UniProt P12657) | calcium mobilisation, positive allosteric modulator | CHO | added: acetylcholine EC20 | 263 nM
CC(=O)N1CCCC[C@H]1C(=O)NC(C)(C)C(=O)N1CCCC[C@H]1C(=O)NC(C)(C)C(=O)NC(C)(C)C(=O)N[C@@H](CC(C)C)C(=O)NCCC(=O)N[C@H](C)C(=O)NC(C)(C)C(=O)NC(C)(C)C(=O)N1CCCC[C@H]1C(=O)NC(C)(C)C(=O)NCC(=O)N[C@@H](CC(C)C)C(=O)NC(C)(C)C(=O)N[C@@H](CC(C)C)C[N+]1=C2CCCN2CCC1 | ATP5F1B/ATP5F1A/ATP synthase F(1) complex subunit gamma, mitochondrial | ATP production, inhibitor | permeabilized MCF7 | – | 0.86 ± 0.24 nM
Nc1ncnc2c1ncn2C1OC(COP(=O)(O)OP(=O)(O)OCC2OC(O)C(O)C2O)C(O)C1O (stereo not shown) | TRPM2 (Nematostella vectensis, UniProt A7T1N0, T307A) | channel activation, agonist, inside-out patch clamp | – | T307A, 2.5 µM PIP2, added: 125 µM Ca2+ | 31000 ± 2000 nM
Cc1cc(O)cc(C)c1CC(N)C(=O)NC1CCNc2c(CN3CCCCC3)cc(Cc3ccccc3)cc21 (stereo not shown) | Oprm1 (Rattus norvegicus, UniProt P33535) | GTPγS binding, agonist, radiometric | – | cell membranes | 2.3 nM
CC(C)C[C@H](NC(=O)[C@@H](CCCNC(=N)N)NC(=O)[C@H](Cc1c[nH]cn1)NC(=O)[C@H](CO)NC(=O)[C@H](Cc1c[nH]c2ccccc12)NC(=O)[C@H](Cc1c[nH]cn1)NC(=O)[C@@H]1CCC(=O)N1)C(=O)N[C@@H](CCCNC(=N)N)C(=O)N1CCC[C@H]1C(=O)NCC(N)=O | Gonadotropin-releasing hormone receptor | inositol phosphate accumulation, agonist | HEK293 expressing Gonadotropin-releasing hormone receptor | 60 min, 37 °C, added: 10 mM LiCl | 45 ± 6.9 nM
O=C(CCCCCCCCCN=C=S)CC(=O)N[C@H]1CCOC1=O | lasR | reporter gene, agonist | Escherichia coli, JLD271 with LasR plasmid | – | 17 nM
CCN(Cc1ccccc1)C(=O)CCc1nc(CN2CCN(C(=O)Cc3ccc(OC)c(OC)c3)CC2)no1 | Scn10a (Rattus norvegicus, UniProt Q62968) | inactivation midpoint shift, whole-cell patch clamp | rat DRG neurons | – | 33.1 ± 10.8 nM
